Experimental data pooled from the literature.
Every numbered part comes from another study and shows a few of its results, in no order. “And” joins repeats or separate records; there may be more than shown.
Chain of UniProt O95747 (whole entry, looked up): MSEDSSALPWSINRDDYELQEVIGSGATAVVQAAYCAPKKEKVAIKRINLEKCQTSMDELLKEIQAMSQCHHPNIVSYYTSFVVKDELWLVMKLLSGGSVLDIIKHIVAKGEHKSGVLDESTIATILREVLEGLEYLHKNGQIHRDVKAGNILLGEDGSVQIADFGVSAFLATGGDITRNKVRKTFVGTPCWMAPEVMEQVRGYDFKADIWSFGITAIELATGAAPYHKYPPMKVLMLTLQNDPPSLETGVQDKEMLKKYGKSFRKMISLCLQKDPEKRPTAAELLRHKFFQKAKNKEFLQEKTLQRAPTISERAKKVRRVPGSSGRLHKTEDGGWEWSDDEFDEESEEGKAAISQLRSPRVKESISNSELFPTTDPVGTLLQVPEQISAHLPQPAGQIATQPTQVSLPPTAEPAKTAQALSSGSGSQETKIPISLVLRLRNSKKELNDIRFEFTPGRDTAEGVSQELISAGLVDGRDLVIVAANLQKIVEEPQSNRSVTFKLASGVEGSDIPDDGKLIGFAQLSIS
Chain of UniProt P07949 (whole entry, looked up): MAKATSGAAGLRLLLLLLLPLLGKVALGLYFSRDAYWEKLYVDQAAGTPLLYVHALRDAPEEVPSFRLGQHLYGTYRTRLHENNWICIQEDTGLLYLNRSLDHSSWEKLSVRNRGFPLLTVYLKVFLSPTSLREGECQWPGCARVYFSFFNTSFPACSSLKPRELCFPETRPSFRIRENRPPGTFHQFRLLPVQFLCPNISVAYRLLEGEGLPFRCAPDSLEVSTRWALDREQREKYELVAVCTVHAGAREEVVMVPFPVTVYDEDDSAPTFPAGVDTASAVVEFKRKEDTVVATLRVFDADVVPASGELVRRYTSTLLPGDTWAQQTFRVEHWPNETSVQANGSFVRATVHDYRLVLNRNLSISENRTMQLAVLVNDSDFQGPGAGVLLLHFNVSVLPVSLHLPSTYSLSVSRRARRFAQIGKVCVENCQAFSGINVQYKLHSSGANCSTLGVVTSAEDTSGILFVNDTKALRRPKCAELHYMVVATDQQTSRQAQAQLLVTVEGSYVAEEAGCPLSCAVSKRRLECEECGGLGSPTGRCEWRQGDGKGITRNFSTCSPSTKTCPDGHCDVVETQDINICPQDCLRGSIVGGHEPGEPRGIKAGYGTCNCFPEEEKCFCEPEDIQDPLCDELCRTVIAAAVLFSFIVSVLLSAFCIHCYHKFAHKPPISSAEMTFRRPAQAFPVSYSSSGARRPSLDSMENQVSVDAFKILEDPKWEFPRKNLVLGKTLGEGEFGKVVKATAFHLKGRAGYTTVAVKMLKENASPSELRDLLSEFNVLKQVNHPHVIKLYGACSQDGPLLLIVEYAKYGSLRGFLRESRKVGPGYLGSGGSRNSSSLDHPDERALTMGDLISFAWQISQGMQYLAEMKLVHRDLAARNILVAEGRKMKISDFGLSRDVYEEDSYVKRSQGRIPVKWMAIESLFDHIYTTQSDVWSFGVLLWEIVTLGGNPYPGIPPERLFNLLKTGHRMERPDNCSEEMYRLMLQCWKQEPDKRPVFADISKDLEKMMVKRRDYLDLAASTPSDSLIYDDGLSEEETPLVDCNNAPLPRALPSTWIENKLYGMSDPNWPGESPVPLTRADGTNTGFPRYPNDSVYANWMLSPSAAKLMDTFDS
Chain of UniProt P43403 (whole entry, looked up): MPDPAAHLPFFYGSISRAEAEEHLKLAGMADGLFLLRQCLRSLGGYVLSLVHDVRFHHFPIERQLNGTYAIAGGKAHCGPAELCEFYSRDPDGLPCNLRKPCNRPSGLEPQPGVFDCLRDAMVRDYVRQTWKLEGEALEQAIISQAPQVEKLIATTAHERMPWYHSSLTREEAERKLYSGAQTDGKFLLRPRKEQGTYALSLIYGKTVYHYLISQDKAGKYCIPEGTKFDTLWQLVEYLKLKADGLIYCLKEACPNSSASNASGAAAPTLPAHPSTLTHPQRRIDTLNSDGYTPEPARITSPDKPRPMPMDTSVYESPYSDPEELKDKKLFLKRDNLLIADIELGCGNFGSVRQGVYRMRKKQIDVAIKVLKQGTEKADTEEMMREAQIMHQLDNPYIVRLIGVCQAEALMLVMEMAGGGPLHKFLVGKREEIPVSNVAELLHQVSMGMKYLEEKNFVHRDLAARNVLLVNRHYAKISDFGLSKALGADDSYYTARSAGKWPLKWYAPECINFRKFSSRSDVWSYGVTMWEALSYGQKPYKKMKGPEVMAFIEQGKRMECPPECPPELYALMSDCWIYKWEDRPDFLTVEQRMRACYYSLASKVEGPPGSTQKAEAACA
Chain of UniProt P23458 (whole entry, looked up): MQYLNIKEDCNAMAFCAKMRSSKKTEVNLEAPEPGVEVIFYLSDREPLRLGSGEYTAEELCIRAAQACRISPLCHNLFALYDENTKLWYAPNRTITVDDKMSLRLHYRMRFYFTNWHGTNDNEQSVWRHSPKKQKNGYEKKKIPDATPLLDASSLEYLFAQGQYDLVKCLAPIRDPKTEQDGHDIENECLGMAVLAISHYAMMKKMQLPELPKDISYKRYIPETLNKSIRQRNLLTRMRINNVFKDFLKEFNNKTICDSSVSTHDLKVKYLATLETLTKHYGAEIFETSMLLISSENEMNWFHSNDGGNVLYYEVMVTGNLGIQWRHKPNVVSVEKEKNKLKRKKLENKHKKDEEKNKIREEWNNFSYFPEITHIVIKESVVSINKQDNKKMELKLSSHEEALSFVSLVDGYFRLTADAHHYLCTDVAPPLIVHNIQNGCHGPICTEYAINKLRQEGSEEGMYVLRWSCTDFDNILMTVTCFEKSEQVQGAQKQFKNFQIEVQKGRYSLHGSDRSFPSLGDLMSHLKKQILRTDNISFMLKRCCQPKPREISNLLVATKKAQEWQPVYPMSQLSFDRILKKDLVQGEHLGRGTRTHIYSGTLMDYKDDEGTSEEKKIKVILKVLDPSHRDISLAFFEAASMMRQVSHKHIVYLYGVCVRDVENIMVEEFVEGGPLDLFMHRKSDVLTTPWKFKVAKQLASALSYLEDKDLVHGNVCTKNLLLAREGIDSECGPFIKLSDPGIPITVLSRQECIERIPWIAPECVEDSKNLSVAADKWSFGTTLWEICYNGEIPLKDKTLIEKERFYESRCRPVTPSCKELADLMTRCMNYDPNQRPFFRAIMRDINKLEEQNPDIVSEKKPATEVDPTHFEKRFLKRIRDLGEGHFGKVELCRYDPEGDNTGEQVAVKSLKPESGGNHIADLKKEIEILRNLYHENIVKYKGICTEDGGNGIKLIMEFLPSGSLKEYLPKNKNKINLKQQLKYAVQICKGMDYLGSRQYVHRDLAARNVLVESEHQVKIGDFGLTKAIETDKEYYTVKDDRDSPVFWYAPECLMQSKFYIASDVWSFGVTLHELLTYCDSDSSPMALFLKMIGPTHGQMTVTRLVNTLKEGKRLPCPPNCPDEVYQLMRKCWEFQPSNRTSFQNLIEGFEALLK
Chain of UniProt O96013 (whole entry, looked up): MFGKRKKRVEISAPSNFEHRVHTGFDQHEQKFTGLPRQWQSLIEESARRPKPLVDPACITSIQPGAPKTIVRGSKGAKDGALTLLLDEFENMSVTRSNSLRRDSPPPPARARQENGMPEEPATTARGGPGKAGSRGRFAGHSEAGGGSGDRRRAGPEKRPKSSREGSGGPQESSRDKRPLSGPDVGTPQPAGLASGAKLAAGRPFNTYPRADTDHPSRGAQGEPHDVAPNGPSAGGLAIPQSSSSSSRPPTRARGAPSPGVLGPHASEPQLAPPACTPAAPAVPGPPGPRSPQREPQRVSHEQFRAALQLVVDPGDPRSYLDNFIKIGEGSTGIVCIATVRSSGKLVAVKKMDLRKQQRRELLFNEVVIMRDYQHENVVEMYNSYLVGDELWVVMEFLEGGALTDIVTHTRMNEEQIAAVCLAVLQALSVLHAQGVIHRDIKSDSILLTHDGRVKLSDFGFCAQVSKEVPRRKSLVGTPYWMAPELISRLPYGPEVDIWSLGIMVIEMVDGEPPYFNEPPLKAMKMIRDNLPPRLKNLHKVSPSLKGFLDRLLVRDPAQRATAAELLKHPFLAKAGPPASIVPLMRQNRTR
Chain of UniProt O14920 (whole entry, looked up): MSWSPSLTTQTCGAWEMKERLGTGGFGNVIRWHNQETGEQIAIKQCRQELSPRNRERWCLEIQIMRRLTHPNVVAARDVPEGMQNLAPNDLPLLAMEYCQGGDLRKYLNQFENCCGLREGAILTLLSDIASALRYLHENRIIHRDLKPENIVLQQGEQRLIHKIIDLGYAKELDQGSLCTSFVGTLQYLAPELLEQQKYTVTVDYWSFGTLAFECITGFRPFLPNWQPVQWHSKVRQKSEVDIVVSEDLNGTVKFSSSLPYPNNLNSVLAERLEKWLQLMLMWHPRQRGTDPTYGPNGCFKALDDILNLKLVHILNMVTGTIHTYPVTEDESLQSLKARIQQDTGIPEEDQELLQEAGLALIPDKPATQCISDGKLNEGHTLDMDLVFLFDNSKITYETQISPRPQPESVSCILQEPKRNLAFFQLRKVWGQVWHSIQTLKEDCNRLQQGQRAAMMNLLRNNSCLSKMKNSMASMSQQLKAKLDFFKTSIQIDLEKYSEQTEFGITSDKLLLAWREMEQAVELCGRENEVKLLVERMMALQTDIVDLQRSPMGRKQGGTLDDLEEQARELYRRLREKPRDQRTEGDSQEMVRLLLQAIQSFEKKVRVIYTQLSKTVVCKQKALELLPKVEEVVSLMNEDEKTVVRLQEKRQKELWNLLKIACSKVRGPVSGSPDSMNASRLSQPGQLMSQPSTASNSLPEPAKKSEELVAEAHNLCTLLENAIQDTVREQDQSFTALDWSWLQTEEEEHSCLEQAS
Chain of UniProt P11802 (whole entry, looked up): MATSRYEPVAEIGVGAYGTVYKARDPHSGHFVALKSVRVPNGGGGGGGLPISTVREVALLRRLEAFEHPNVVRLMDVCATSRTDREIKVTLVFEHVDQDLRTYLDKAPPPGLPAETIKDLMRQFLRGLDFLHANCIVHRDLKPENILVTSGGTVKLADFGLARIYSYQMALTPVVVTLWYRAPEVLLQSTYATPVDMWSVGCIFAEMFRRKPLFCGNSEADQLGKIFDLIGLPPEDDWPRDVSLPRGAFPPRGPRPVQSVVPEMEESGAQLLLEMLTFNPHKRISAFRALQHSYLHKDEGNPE

Study 1 — observed: enzyme activity; mode: inhibitor; concentration: 0.5 µM; baseline: control
Structure (SMILES): Nc1nc(Nc2ccc(S(N)(=O)=O)cc2)nn1C(=O)c1c(F)cccc1F
| target | remaining activity [%] |
| --- | --- |
| OXSR1 (Homo sapiens, UniProt O95747) | 88.8 |
| TGFBR2 (Homo sapiens, UniProt P37173) | 98.5 |
| Protein kinase C beta type, isoform beta-I (PRKCB, Homo sapiens, UniProt P05771) | 88.2 |
| IKBKB (Homo sapiens, UniProt O14920) | 105 |
| CHEK2 (Homo sapiens, UniProt O96017) | 63.6 |
| STK39 (Homo sapiens, UniProt Q9UEW8) | 89.5 |
| Cyclin-dependent kinase 4, with cyclin D1 (CDK4, Homo sapiens, UniProt P11802) | 20 |
| GRK3 (Homo sapiens, UniProt P35626) | 87.2 |
| NEK2 (Homo sapiens, UniProt P51955) | 94.8 |
| PRKACA (Homo sapiens, UniProt P17612) | 98.8 |
| STK11 (Homo sapiens, UniProt Q15831) | 85.8 |
| MAPK9 (Homo sapiens, UniProt P45984) | 93.7 |
| MAP3K3 (Homo sapiens, UniProt Q99759) | 27.5 |
| CAMK2D (Homo sapiens, UniProt Q13557) | 94.6 |
| TGFBR1 (Homo sapiens, UniProt P36897) | 104 |
| PRKCA (Homo sapiens, UniProt P17252) | 55.7 |
| Tyrosine-protein kinase Lyn, isoform B (LYN, Homo sapiens, UniProt P07948) | 103 |
| DAPK2 (Homo sapiens, UniProt Q9UIK4) | 107 |

Study 2 — mode: inhibitor; concentration: 10 µM; baseline: control
Target: Diamine acetyltransferase 1 (Homo sapiens, UniProt P21673)
Construct (P21673 1-171): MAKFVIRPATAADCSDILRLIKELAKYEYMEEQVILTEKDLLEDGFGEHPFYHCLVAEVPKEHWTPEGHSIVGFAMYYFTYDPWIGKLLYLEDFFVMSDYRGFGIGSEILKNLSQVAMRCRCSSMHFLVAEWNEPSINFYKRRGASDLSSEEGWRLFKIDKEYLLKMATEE
| Compound | remaining activity [%] |
| --- | --- |
| OC[C@@H](O)C(O)[C@@H](O)CO (stereo partly shown) | 87.9 |
| C=C(C)[C@@H]1CC[C@@]2(C)CCC(=O)C(C)=C2C1 | 107 |
| C=C(C)[C@@H]1CC=C2C(=CC[C@]3(C)[C@@H]([C@@H](CCC=C(C)C)C(=O)O)[C@H](O)C[C@@]23C)[C@@]1(C)CCC(=O)O | 97.6 |
| O=C(/C=C/c1ccc(O)c(O)c1)O[C@H]1[C@H](O)C[C@](O)(C(=O)O)C[C@H]1OC(=O)/C=C/c1ccc(O)c(O)c1 | 101 |
| C=C1CC/C=C(\C)CC[C@@H]2[C@@H]1CC2(C)C | 98.2 |
| O=C(O)c1cc(O)cc(O)c1 | 80.5 |
| C[C@]1(O)C[C@@H](O)[C@@H]2C(C(=O)O)=CO[C@@H](O[C@@H]3O[C@H](CO)[C@@H](O)[C@H](O)[C@H]3O)[C@@H]21 | 97.4 |
| CC(C)=C[C@H]1C[C@](C)(O)[C@@H]2[C@H]3CC[C@@H]4[C@@]5(C)CC[C@H](O[C@@H]6OC[C@H](O)[C@H](O[C@@H]7O[C@H](CO[C@@H]8O[C@H](CO)[C@@H](O)[C@H](O)[C@H]8O)[C@@H](O)[C@H](O)[C@H]7O[C@@H]7OC[C@@H](O)[C@H](O)[C@H]7O)[C@H]6O[C@@H]6O[C@@H](C)[C@H](O)[C@@H](O)[C@H]6O)C(C)(C)[C@@H]5CC[C@@]4(C)[C@@]34CO[C@@]2(C4)O1 | 84.8 |

Study 3 — SMILES: CCOc1ccc(Nc2c3c(nc4ccccc24)CCC3)cc1; organism: Leishmania donovani; strain: DD8
| observed | technique | sample | concentration | time | inhibition |
| --- | --- | --- | --- | --- | --- |
| parasite killing |  | intracellular amastigotes | 4 µM | 48 h | 84% and 79% and 74% |
| parasite killing |  | promastigotes | 1.66 µM | 48 h | 40% and 41% and 42% |
| parasite killing |  | promastigotes | 0.33 µM | 24 h | 7% and 8% and 10% |
| parasite killing |  | promastigotes | 0.066 µM | 24 h | 2% and 4% |
| parasite viability | resazurin | promastigotes | 3.33 µM |  | 64% and 60% and 62% |
| parasite killing |  | intracellular amastigotes | 4 µM | 24 h | 30% and 28% and 35% |
| parasite viability | resazurin | promastigotes | 0.066 µM |  | -8% and -4% and -6% and 2% and -5% |

Study 4 — observed: cell-free assay; technique: competition with immobilised ligand; concentration: 1 µM
Compound: CC(=O)c1c(NS(C)(=O)=O)c2cc(-c3ccc(Cl)cc3)c(-c3ccc(Cl)cc3Cl)nc2n(C)c1=O
| target | remaining binding [%] |
| --- | --- |
| DCLK1 (Homo sapiens, UniProt O15075) | 98 |
| NIM1K (Homo sapiens, UniProt Q8IY84) | 81 |
| NTRK3 (Homo sapiens, UniProt Q16288) | 98 |
| AXL (Homo sapiens, UniProt P30530) | 100 |
| MAP2K3 (Homo sapiens, UniProt P46734) | 96 |
| NEK1 (Homo sapiens, UniProt Q96PY6) | 100 |
| CDKL3 (Homo sapiens, UniProt Q8IVW4) | 100 |
| SIK3 (Homo sapiens, UniProt Q9Y2K2) | 100 |
| RET (Homo sapiens, UniProt P07949) | 93 |
| MAPK10 (Homo sapiens, UniProt P53779) | 78 |
| STK32B (Homo sapiens, UniProt Q9NY57) | 89 |
| RIOK2 (Homo sapiens, UniProt Q9BVS4) | 100 |
| STK33 (Homo sapiens, UniProt Q9BYT3) | 100 |
| ZAP70 (Homo sapiens, UniProt P43403) | 100 |
| PIM3 (Homo sapiens, UniProt Q86V86) | 100 |
| MAP3K13 (Homo sapiens, UniProt O43283) | 71 |
| PAK4 (Homo sapiens, UniProt O96013) | 92 |
| ULK2 (Homo sapiens, UniProt Q8IYT8) | 97 |
| MAP4K4 (Homo sapiens, UniProt O95819) | 100 |
| TAOK2 (Homo sapiens, UniProt Q9UL54) | 97 |
| Tyrosine-protein kinase JAK1, JH1 (JAK1, Homo sapiens, UniProt P23458) | 76 |
| ULK1 (Homo sapiens, UniProt O75385) | 67 |
| PIM2 (Homo sapiens, UniProt Q9P1W9) | 100 |
| OXSR1 (Homo sapiens, UniProt O95747) | 79 |
| CAMK2G (Homo sapiens, UniProt Q13555) | 100 |
